Published values of several laboratories.
Every numbered part comes from another study and shows a few of its results, in no order.

Series 1
Target: Centromere-binding protein 1, full length, His-tagged (CBF1, Saccharomyces cerevisiae, UniProt P17106, residues 1-351)
UniProt P17106, sequence (whole entry, looked up): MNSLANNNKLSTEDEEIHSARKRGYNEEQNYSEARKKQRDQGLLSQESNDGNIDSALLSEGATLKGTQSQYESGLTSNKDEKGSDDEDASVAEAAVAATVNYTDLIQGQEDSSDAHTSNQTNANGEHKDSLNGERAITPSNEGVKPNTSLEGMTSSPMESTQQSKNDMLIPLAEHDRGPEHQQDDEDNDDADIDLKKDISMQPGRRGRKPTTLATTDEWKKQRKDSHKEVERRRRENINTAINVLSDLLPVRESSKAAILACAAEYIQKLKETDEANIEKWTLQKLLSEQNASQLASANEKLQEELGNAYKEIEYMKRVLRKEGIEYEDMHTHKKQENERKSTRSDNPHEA
Technique: competition protein-binding microarray
Form: double-stranded DNA, one strand shown
Matrix: in vitro
Tested at: 2 µM
Notes: whole 60-bp probe, lowest competitor level
With: Pho4 competitor, 0.05 µM
Reading: higher = stronger binding
All sequences stand within: … GTCTTGATTCGCTTGACGCTGCTG
For `CTAATTAAACCTTCACACATGCATAACTATAATGCA`, the fluorescence intensity was 107 a.u.
`TTTGACTGCGTCGCGGGCGTGCTGTACGACCTCGAC` has a fluorescence intensity of 47 a.u.
The fluorescence intensity of `CTTTGTTTTTAACATCACATGTTGTTTCCATCAGAA` is reported as 1140 a.u.
`ACTACATGCCAGCAGCCCGTGCGGATGCCAAATTTG` has a fluorescence intensity of 64.7 a.u.
With `CGGGGTTAAGTTTGGACGGTGGGTGGCTTGCAGCAG` the fluorescence intensity was 59.7 a.u.
With `TAATGGTATAGGCGTCACCTGCCGAAACAAAAATCG` the fluorescence intensity was 235 a.u.
The fluorescence intensity of `CTTCTGTAAATTTGACTTGTGGGTGGACGCGCCCCG` is reported as 80.6 a.u.
`AAATTACTAAGTTGGTCTGTGGGTGACGCCGTATGA` gave a fluorescence intensity of 70.5 a.u.
`TAGGGCTACCTTTGTCATGCCCAGGAAAACCGGATT` has a fluorescence intensity of 60.4 a.u.
The fluorescence intensity of `AGTATCATAGGGTCCCACGTGCAAAGTCCACCGTCT` is reported as 835 a.u.
`AGTGCTTTCCTTTGTCACCGGCGTAACGGATTCGCT` gave a fluorescence intensity of 62 a.u.
With `AGATTTATGGCTTTCCATGTGGTTAAAGAAAAATTG` the fluorescence intensity was 115 a.u.
`CGTCCTAGTGATTGCATAGTGGGTGCCATGAGGAAG` has a fluorescence intensity of 83.3 a.u.
With `AAAGCGGTAATTTGCAACGTGGGTGCAGATATCTAT` the fluorescence intensity was 101 a.u.
The fluorescence intensity of `GTAGACGCAAACCATCACGTACTTCATTTGAGGTTC` is reported as 101 a.u.
For `AAGTGTCCTGCATTCCATGTGAAAGTTAAATAATCT`, the fluorescence intensity was 118 a.u.
For `AAATTACTAAGTTTTCACGTGCTATACCCCGTATGA`, the fluorescence intensity was 1400 a.u.
`CTTCTGTAAATTTGAGGAGTGGGTGGACGCGCCCCG` has a fluorescence intensity of 94.8 a.u.
The fluorescence intensity of `TCCAGCAGAACCAGCCATGTGCGAAGAAAAACAATT` is reported as 108 a.u.
`AAAACTTGGTTATCGCACGCTGAAAAGCGCGTTCTC` has a fluorescence intensity of 71.9 a.u.
For `CTGGACGGCAGAAAGCACGCAGGCAGGGGGCCTCTG`, the fluorescence intensity was 63.3 a.u.
For `CTAACGAAGGTTTGTCACGCGACTTACAAGCCAAGT`, the fluorescence intensity was 621 a.u.
`CACTGTTGGTTCGACACCGTGGGTAAAGATGACAGT` gave a fluorescence intensity of 76.3 a.u.
The fluorescence intensity of `TCCTTATCTATAGGACACGCTGTTATTTTAGTTCAA` is reported as 107 a.u.
With `ATTTTTTTCTTGAAACACGTGAAGCCGAGGAGACCA` the fluorescence intensity was 1320 a.u.

Series 2
Target: RNA binding protein fox-1 homolog 2, RRM domain, GST-SBP tag (RBFOX2, Homo sapiens, UniProt O43251-10, residues 100-194)
Technique: RNA Bind-n-Seq
Form: RNA
Matrix: in vitro
Tested at: 365 nM
Notes: natural RNA segment, single round, ends assumed
Baseline: no-protein control
Reading: higher = stronger binding
All sequences stand within: GGGAGUUCUACAGUCCGACGAUC … UGGAAUUCUCGGGUGCCAA
Target sequence (chain): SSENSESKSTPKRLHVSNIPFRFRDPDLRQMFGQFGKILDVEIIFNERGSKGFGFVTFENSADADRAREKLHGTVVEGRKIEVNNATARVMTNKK
`GAGGUGUAAAUGCAAAAUUGCCAAAUAGCACAAACAAUGAAUGUUUUCUGGUUGUUAUAUAGAUGCCAAAAUAGCACUUUGAUAUUUGCAAAGUGCUUUAUGCUUUUUAA` — result for “RBNS enrichment (R)”: 0.676.
`UUUAAAAACAUUCCCCAAUUAUCUUAUUUAAUUUUUGCAAUUAUUCUAAUUUUAUAUAUAGAGAAAGUGACCUAUUUUUUAAAAAAAUCACACUCUAAGUUCUAUUGAAC`: “RBNS enrichment (R)” 1.9.
Under “RBNS enrichment (R)”, `UUCCAGUCUCUUCCCCCUUUCUAUCCCAAUCACCAAUAGAAAUGCUAACAUCCCUGCCUGGUAGCCAGACUAGCCCACUAAAGCUCCCCUGUAAAUGGGGGCUCCAUUAG` is recorded as 0.802.
`AGACUUUGAAUAGAUCUAGCAAUUGGACAUUAGUAAGCCUAAGUUUUUACAUGAUUGCAUUCCUACAUUCUUGUAAACUUUAAGUAACUACCAUUGCAGUUUGUUCUUUU`: “RBNS enrichment (R)” 0.35.
`UGACAGGUGGACAUCUGUGUCAUUUUUCCUUGUUCCCUCAUCCAUCCAUCCAUCCAUCCAUCCAUCCAUCCAUCCAUCCAUCCAUUCGUCAGCCUACAUUCAACAAACGC` — result for “RBNS enrichment (R)”: 1.23.
For `GGCAACCAGCUGAUUCUGUACAGGGUACACUUGACUGUGGGUAUGCAGGUGGCAGCUGCAGCCCUCCUGUGCUUGUGUACGCAUGACUGCAUGGACCAGCACCACUGCCU`, “RBNS enrichment (R)” read 6.45.
Under “RBNS enrichment (R)”, `GUUUCCAAACCAGUGGUUUCUAUGUAGCUUUUCUAGUUCCUUGCUAUCUUCUCACCACUGGCUUGAGGUAGUGAUUUGGACUUUGCUCAUUAGAGAGCAUUAUCAGAGAU` is recorded as 0.321.
`GGUGAAGGAAAGCAAGCUCACCGCCUGAACACGGAGAUUGUCUUUCUGCCACAGAACAGCAGCAGACGUGUCGGGAGGUUAGCUGCGGAAAGAAAUCGGGAUGCCGCGGA` — result for “RBNS enrichment (R)”: 0.295.
Under “RBNS enrichment (R)”, `ACUAUCCUAAGCAAUGUGUGCUUGCCUGUUAGUGAGGGUGUAGGUUGAGCCCAAGUGGUGGAGUCCUAUUCAUGGGCCUCAGUGCAUGCUGGCUUUAGCCCCAUGCUCAG` is recorded as 1.62.
Under “RBNS enrichment (R)”, `AAUGUUACCUUCUCUCCAUGCUGCCAUUAUGCCAAAACAAAAGCUGUGAUAAAAAAAGUGCUUGAGAGAGUGUGUUGAUAAGAAAGUGAUUUAUUUACAGAUGGAAGUCU` is recorded as 0.367.
`AGUCUUCUUACAUUGUUGGUUCUACUUACAUACUACUGGUCCAACUCUCAUGCUGUUUCUCUCAGAUGUUCCCAUGAUGGUUGCCAAGGACACUUGAUAGAAAGACUACU` — result for “RBNS enrichment (R)”: 0.365.
`GCUCAUUGGUUCUGAUUUGCCCACUAAGGGUACAUGUGCGCUUAGUACAUUUGUAAAUACUCAGUUUUGUAUUGUAUGUAUAUGAUUGCUAUUCUCAGAGGUUUGGACUU` — result for “RBNS enrichment (R)”: 0.447.

Series 3
Target: Histone acetyltransferase KAT6A, both winged helices, GST fusion (KAT6A, Homo sapiens, UniProt Q92794, residues 1-181)
Technique: protein binding microarray
Form: double-stranded DNA, one strand shown
Matrix: in vitro
Tested at: not given
Notes: 8-mer, flanks averaged, mean of 2 arrays, mostly near background
Baseline: not given
Reading: higher = stronger binding
Target sequence (chain): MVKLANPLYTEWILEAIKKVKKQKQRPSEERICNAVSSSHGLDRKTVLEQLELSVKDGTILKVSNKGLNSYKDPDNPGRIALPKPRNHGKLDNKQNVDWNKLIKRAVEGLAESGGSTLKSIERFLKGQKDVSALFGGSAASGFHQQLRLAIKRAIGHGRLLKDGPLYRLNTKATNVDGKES
With `CGCTCCAG` the E-score was 0.205.
`ATATCCGC` gave an E-score of 0.22.
The E-score of `ACGACTTC` is reported as 0.00505.
With `CACTAAAG` the E-score was -0.187.
`AGCAATTC` has an E-score of 0.02.
For `GGGGTGAA`, the E-score was -0.133.
For `CCTTTACC`, the E-score was 0.00789.
`GGCTCCGA` has an E-score of -0.0257.
The E-score of `GCAATTGA` is reported as 0.0589.
The E-score of `AGTAGAGG` is reported as -0.273.
`CGAAACAG` has an E-score of -0.0213.
The E-score of `AAAACAGG` is reported as -0.228.
`AATTATTG` gave an E-score of -0.0886.
`CCTGTTAC` gave an E-score of -0.103.
`AAACGTAT` gave an E-score of 0.0485.
`CCAATAGG` gave an E-score of -0.267.
For `ATTTAAGG`, the E-score was -0.146.
`ACGGAAGT` has an E-score of 0.235.
`ATATTAGC` has an E-score of 0.0528.

Series 4
Target: Ras GTPase-activating protein-binding protein 1, full length (G3BP1, Homo sapiens, UniProt Q13283)
UniProt Q13283, sequence (whole entry, looked up): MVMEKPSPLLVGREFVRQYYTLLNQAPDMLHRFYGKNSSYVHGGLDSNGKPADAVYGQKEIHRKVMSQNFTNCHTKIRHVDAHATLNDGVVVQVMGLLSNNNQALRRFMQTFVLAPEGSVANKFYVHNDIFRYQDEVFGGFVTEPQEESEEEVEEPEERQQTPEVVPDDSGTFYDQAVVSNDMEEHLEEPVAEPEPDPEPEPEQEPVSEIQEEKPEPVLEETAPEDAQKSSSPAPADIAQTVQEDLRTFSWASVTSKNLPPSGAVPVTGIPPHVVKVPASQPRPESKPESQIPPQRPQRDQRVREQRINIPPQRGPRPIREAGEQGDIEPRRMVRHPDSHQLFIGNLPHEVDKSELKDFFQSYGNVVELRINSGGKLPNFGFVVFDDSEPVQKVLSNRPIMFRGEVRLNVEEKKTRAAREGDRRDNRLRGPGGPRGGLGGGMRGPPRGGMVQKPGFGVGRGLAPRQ
Technique: RNA Bind-n-Seq
Form: RNA
Matrix: in vitro
Tested at: 200 nM
Notes: whole 134-nt RNA, ends assumed
With: 150 mM LiCl
Baseline: input library
Reading: higher = stronger binding
Library: 7-deaza-guanosine replaces G
All sequences stand within: GGGAGUUCUACAGUCCGACGAUC … UGGAAUUCUCGGGUGUCAAGG
With `GUCCUGUGCUACACAUCGUAUGUACCGAAUCGGGAAAAAAAGGGAAAAAAAGGGAGGGAAAGUAUUAUGUUACGCCGUUCGGAUCUGCAC` the log2 enrichment was 0.028.
With `GCAGGAAGUAAAAACAAAUUGAAAUGCUUCGGAUAGUGGCAGGGGUGGGGGUUGCUAAGGAAAGGGUGGGAUGGGAGUGGGUAAAGAGUU` the log2 enrichment was 0.174.
`CUCAAGUCCUGUGCUACACAUCGUAUGUACCGAAUCGGGCGGGGCGGGGCGGGGAAAGUAUUAUGUUACGCCGUUCGGAUCUGCACUUCC` has a log2 enrichment of 0.0835.
`AAGUCCUGUGCUACACAUCGUAUGUACCGAAUCGGUUUUUUUGGUUUUUUUGGAGGAAAGUAUUAUGUUACGCCGUUCGGAUCUGCACUU` has a log2 enrichment of -0.421.
With `CACAGACAACACGCACCCACACAGACACAGAGGGAAGGGGUUGGGAUGGGGAGAGGGUGCACAGCAGGGCGGGGUAGGACCCCAGCCCCU` the log2 enrichment was -0.0867.
`CCUCAAGUCCUGUGCUACACAUCGUAUGUACCGAAUCGGGUUGGUUGGUUGGAAAGUAUUAUGUUACGCCGUUCGGAUCUGCACUUCCAG` has a log2 enrichment of -0.194.
`CACAGACAACACGCACCCACACAUACACAGAGGGAAGGGGUUGGGAUGGGGACAGGGUGCACAGCAGGGCGGGGUAGGACCCCAGCCCCU` gave a log2 enrichment of -0.366.
`UCCUGUGCUACACAUCGUAUGUACCGAAUCGGGGUUUUUUGGUUUUUUGGGUUUUUUGGGAAAGUAUUAUGUUACGCCGUUCGGAUCUGC` has a log2 enrichment of -0.16.
`UAACUUUAGAGGAGGAUCUGAUGGAUAUGGCAGUGGACGUGGAUUUGGGGAUGGAUAUAAUGGGUAUGGAGGAGGACCUGGAGGUGGCAA` gave a log2 enrichment of 0.579.
The log2 enrichment of `GUCCUGUGCUACACAUCGUAUGUACCGAAUCGGGGAAAGGGGUUUUUGGGGAAAGGGGAAAGUAUUAUGUUACGCCGUUCGGAUCUGCAC` is reported as -0.0558.
`UCCUGUGCUACACAUCGUAUGUACCGAAUCGGGAAAAAAAGGGUUUUUUUGGGAAAGGGAAAGUAUUAUGUUACGCCGUUCGGAUCUGCA` gave a log2 enrichment of -1.43.

For quick reference, copied from above (series 3):
`CCAATAGG` gave an E-score of -0.267.
`GGCTCCGA` has an E-score of -0.0257.
The E-score of `GCAATTGA` is reported as 0.0589.
For `CCTTTACC`, the E-score was 0.00789.
`ACGGAAGT` has an E-score of 0.235.
With `CACTAAAG` the E-score was -0.187.
`ATATCCGC` gave an E-score of 0.22.
